Measurements from different studies.
Numbered parts are unrelated; each lists some results of a single study.

Series 1 — method: RNA Bind-n-Seq; form: RNA; medium: in vitro; tested at: 365 nM; baseline: no-protein control; reading: higher = stronger binding; quantity: RBNS enrichment (R)
Target: RNA binding protein fox-1 homolog 2, RRM domain, GST-SBP tag (RBFOX2, Homo sapiens, UniProt O43251-10, residues 100-194)
Notes: natural RNA segment, single round, ends assumed
Constant ends, left off below: GGGAGUUCUACAGUCCGACGAUC … UGGAAUUCUCGGGUGCCAA
Construct (chain): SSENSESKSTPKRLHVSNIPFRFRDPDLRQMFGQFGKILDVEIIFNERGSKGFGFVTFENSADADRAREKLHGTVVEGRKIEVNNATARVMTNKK
AUUAUAUUCUUUAUAAGGCGUGUGCCAGCCUGUAUAGUAUAUAAGAGAGAGGGGUGUUUGUGUGUAUAUAUAUAUGCCUUUGUGUAUACACUUAUCAAAGCUAUUUUCUU: 1.3
GAGGAAAUAUUUUGUAUUGUAUAUUACAAUGAUCACUGGCUGAAAAUAUUGUUUUACAAUAGUUCUAUGGGGGUGAGUUUUUUGUUGUUAUUAAACAAACACUUUAGAUA: 3.66
CAACUCAGCACACACUCCUUCAGCCUGAGAUUUUUCAAAUCUUUGGCAACUGAGAUGGGAUGGAUCCAUUUAAUUAGAGAACGGUGAAAUCUUUCUAGUUGGGCUUUUUG: 0.351
ACUACUGUAGGGCACAAUGACUUUUCUUUUCCCGUUUAAUUAGGCAAUACCCUUGUUAAUUGCCCGUUGGCAACUAACUUAAUCAUGUGCUUCCAACACACUAAAUAGGG: 0.348
GAAGGGGGCACUGCAUUGCUCUUUUGUUGCAGAGGCAGGGGGUAACUGCAUUAUUAUUGUGAAACAAACCGAUGUGGUUUAGAGCCACCAGCACUGACCCUUUCCUAGUU: 0.789
UUUUUUCCAUAUUUUUGAAAGAUUUUUCAGAUGUGAACAUUAAAAAUAGGGAUUAAAUGUCUAGGCUUCCAUUUAAAAUUAUAUGAAUGGUUUGGGAUCUUUUUGCACUG: 0.94
AUCCGUGGCUGCUCAUUCUUGCCUACUUUACUCUCCCACUGAAGCAGGUUAGCGUUGAAGGUGGUAUGGAAAAGCCUGCAUGCCUGUUCAAUUCUUUUGUUUCUUCUCCU: 1.77
AGUCUGUUAAUUUAUCUGAAAUUGGAUUUUUUUUUAAAAAAGUAAUAAAAAAUUAAAUACUUCCCUUGAUGCUUGCUUUCUUUCCUUUGUGAAACAGGUAAACUGAGGUA: 2

Series 2 — method: RNA Bind-n-Seq; form: RNA; medium: in vitro; tested at: 1 µM; notes: whole 134-nt RNA, ends assumed; with: 150 mM KCl; baseline: input library; reading: higher = stronger binding; quantity: log2 enrichment
Target: Ras GTPase-activating protein-binding protein 1, C-terminal RGG region (G3BP1, Homo sapiens, UniProt Q13283)
Chain of UniProt Q13283 (whole entry, looked up): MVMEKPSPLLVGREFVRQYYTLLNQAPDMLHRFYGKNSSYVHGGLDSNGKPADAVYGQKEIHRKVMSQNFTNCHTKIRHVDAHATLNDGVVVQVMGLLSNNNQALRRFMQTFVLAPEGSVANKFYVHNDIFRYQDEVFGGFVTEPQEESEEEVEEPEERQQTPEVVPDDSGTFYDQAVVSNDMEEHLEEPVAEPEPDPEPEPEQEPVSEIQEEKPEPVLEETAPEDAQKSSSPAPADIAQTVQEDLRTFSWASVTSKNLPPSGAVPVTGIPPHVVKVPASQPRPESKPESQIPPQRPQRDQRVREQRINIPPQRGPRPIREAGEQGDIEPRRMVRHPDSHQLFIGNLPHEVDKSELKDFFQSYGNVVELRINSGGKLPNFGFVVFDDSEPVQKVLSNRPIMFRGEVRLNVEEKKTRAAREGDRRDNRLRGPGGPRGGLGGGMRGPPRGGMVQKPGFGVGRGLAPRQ
Constant ends, left off below: GGGAGUUCUACAGUCCGACGAUC … UGGAAUUCUCGGGUGUCAAGG
UGGCCCUGGUGGCAUGCGGGGAGGAAGAGGUGGCCUCAUGGAUCGUGGUGGUCCCGGUGGAAUGUUCAGAGGUGGCGGUGGUGGAGACAG: 3.22
ACCAUGCAGGUGGGCAUCUUUGGGAAGUGGGGCAAGGGGGGGAUAGGGAGGGGGGUAACACUUUGGAAACAGGUGGUCCCAGGUCGUUUC: -1.34
UGGGAGGUUGAUUUUGUUUAUUUUUUUAGCUCAUUUCCAGGGGUGGGAAUUUUUUUUUAAUAUGUGUCAUGAAUAAAGUUGUUUUUGAAA: 3.42
AAGUCCUGUGCUACACAUCGUAUGUACCGAAUCGGGUUUUUUUGGGAGGGAAAGGGAAAGUAUUAUGUUACGCCGUUCGGAUCUGCACUU: 0.814
ACCAUGCAGGUGGGCAUCUUUGGGAAAAGGGGCAAGGGGGGGAUAGGGAGGGGGGUAACACUUUGGGAACAGGUGGUCCCAGGUCGUUUC: -0.954
GUCCUGUGCUACACAUCGUAUGUACCGAAUCGGCCCCCCGGCCCCCCGGGCCCCCCGGGAAAGUAUUAUGUUACGCCGUUCGGAUCUGCA: -1.04
UGGCCCUGGUGGCAUGCGGGGAGGAAGUGGUGGCCUCAUGGAUCGUGGUGGUCCCGGUGGAAUGUUCAGAGGUGGCCGUGGUGGAGACAG: 1.65
GUCCUGUGCUACACAUCGUAUGUACCGAAUCGGCCCCCGGGCCCCCGGGCCCCCGGGGAAAGUAUUAUGUUACGCCGUUCGGAUCUGCAC: -1.51
UGGGAGGUGGAUUUUGUUUAUUUUUUUAGCUCAUUUCCAGGGGUGGGAAUUUUUUUUUAAUAUGUGUGAUGAAUAAAGUUGUUUUUGAAA: 3.08

Series 3 — method: protein binding microarray; form: double-stranded DNA, one strand shown; medium: in vitro; tested at: not given; baseline: not given; reading: higher = stronger binding; quantity: E-score
Target: Histone acetyltransferase KAT6A, winged helix 1, GST fusion (KAT6A, Homo sapiens, UniProt Q92794, residues 1-85)
Notes: 8-mer, flanks averaged, mean of 2 arrays, mostly near background
Target sequence (chain): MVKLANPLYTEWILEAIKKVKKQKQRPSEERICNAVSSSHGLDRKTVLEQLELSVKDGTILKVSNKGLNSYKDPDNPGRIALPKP
ATGCGATG: 0.0331
AAAGAGCG: 0.186
ATAGCAAC: -0.141
AGAAATTG: -0.282
CACGATGA: -0.0714
AATAACTA: -0.126
AGCTATCA: -0.0194
CTCGTCAA: -0.0663
AAAAAACT: -0.203
CCATTAAG: -0.0772
CCGACTCC: 0.158
AAACAAGA: -0.165
CCACGTCG: 0.0686
AGTTTCGG: 0.0224
AGGCACTA: -0.0954
ATGGTAGA: -0.141
ATGGGGAC: -0.148
ACCCTAGC: -0.0824
GCCCACAA: -0.153
AACCCAAT: -0.178
GAAAACTC: -0.0395
AATAGTCA: -0.207
TATACCCA: -0.14

Series 4 — method: protein-binding microarray; form: double-stranded DNA, one strand shown; medium: in vitro; tested at: 2540 nM top; notes: 60-bp whole probe; with: salmon DNA 0.4 mg/ml; baseline: random background probes; reading: higher = stronger binding; quantity: fitted relative affinity; constant ends, left off below: GCCTAGCAC … GTCTTGATTCGCTTGACGCTGCTG
Target: Interferon regulatory factor 3, full length, phosphomimetic (IRF3, Homo sapiens, UniProt Q14653, residues 1-427, S386D/S396D/S398D/S402D/T404D/S405D)
Residues (chain): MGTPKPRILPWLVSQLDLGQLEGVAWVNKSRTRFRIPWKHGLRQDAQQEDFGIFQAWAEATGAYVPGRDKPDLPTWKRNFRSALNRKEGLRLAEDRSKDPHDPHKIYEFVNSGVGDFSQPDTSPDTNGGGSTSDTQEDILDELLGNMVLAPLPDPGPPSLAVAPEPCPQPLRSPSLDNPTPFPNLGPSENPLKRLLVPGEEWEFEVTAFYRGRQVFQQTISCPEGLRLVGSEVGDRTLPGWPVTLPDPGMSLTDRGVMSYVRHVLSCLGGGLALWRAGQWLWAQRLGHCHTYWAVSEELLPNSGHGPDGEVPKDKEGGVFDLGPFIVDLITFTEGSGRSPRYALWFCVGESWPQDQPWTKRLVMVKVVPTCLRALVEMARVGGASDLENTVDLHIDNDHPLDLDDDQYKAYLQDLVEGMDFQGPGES
TTAGATATCAGTATGGATTAGTGCTAG: 0.313 z-score
GAAGGACTGGGTCTCGGGACGTGCTAG: -1.07 z-score
ATAGATATGCCAAATCTGTGTGTGCTA: 0.0547 z-score
GACGGACTGGGGACTGGGGGCGTGCTA: -0.456 z-score
GGAGGCCTCTTCATTCATTAAGTGCTA: -0.603 z-score
TTAGATATCGGGGCTGGATTAGTGCTA: -0.68 z-score
GACGATTTCGGGTATCGAGACGTGCTA: 1.81 z-score
GACGAACTGAGACAGGAGACGTGCTAG: 0.0124 z-score
TCAACCATCCTGTGTCTTACTGTGCTA: 0.228 z-score
GACAATTTCGGGTTTCGAGACGTGCTA: 2.83 z-score
TTAGGTCTCGTTCTCCTTTAGTGCTAG: 2.22 z-score
GACGAACTGGGGTATCGAGGCGTGCTA: -0.547 z-score
TTACATTTCAGACTGGATTAGTGCTAG: 1.41 z-score
GACAATTTCAGTTTCGAGACGTGCTAG: 4.74 z-score
CCCTAGGGGCTCTCAGAGATGTGCTAG: -0.736 z-score
TTAGGTTTCGGGTATCGGTTTGTGCTA: 5.03 z-score
TTAGGTTTCGGGACTAGGTTAGTGCTA: 4.19 z-score
ATCTCACTCTAATCTCACTCTGTGCTA: 0.979 z-score

For quick reference, copied from above (series 3):
ACCCTAGC: -0.0824
AAAAAACT: -0.203
GCCCACAA: -0.153
ATGGGGAC: -0.148
AGAAATTG: -0.282
